Measured values pooled from the literature.
Parts stem from different laboratories: compare values within a part only.
Sequence of UniProt O14578 (whole entry, looked up): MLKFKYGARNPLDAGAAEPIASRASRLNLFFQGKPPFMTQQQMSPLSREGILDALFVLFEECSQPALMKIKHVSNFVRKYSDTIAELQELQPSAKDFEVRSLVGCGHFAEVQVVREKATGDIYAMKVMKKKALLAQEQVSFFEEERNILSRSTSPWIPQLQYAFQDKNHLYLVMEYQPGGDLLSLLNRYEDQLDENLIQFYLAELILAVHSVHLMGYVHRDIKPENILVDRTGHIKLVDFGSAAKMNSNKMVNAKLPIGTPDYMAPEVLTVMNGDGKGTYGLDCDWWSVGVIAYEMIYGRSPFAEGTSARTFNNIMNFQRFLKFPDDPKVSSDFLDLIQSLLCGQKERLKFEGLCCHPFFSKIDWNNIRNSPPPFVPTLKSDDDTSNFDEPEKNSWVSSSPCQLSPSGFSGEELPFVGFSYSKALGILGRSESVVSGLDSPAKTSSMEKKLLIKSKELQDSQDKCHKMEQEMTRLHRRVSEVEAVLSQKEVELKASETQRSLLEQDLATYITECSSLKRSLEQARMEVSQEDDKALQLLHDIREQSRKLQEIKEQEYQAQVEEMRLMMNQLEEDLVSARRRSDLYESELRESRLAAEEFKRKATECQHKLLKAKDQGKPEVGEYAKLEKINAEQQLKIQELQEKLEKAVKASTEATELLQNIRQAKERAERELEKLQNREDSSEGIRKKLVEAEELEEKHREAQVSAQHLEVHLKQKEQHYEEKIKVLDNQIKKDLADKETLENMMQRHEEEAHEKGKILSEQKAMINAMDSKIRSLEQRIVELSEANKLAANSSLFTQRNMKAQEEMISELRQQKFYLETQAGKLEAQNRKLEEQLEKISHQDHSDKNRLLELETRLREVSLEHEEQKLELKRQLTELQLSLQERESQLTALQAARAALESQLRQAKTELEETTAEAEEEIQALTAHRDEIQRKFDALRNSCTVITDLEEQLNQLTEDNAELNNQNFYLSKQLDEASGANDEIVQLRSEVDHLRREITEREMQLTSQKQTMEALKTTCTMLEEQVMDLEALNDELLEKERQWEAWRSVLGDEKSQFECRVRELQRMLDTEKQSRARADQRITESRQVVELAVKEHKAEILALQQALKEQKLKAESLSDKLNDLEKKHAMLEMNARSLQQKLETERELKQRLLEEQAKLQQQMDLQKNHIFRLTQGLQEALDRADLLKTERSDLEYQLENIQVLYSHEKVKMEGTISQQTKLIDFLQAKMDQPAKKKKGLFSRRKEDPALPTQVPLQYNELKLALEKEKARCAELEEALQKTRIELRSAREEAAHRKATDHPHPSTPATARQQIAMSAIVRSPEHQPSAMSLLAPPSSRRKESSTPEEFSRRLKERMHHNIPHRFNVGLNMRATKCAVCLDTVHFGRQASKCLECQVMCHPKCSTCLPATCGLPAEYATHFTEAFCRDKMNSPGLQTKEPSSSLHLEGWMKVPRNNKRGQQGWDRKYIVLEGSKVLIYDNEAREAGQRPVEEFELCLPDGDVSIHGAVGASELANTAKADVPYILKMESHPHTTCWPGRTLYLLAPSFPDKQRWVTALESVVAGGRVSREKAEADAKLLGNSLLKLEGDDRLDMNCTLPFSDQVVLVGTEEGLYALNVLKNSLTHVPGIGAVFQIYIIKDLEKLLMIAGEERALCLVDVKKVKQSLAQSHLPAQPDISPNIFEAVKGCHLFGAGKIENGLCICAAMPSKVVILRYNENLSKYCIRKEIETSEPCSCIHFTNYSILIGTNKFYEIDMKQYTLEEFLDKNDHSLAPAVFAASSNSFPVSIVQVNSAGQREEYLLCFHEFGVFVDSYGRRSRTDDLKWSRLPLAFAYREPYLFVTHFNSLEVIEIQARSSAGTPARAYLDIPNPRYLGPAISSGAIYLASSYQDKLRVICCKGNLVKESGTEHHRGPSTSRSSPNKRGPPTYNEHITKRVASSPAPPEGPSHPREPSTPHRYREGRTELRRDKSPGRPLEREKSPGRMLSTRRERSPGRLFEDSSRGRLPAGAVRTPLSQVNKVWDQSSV
Sequence of UniProt P10721 (whole entry, unmodified, looked up): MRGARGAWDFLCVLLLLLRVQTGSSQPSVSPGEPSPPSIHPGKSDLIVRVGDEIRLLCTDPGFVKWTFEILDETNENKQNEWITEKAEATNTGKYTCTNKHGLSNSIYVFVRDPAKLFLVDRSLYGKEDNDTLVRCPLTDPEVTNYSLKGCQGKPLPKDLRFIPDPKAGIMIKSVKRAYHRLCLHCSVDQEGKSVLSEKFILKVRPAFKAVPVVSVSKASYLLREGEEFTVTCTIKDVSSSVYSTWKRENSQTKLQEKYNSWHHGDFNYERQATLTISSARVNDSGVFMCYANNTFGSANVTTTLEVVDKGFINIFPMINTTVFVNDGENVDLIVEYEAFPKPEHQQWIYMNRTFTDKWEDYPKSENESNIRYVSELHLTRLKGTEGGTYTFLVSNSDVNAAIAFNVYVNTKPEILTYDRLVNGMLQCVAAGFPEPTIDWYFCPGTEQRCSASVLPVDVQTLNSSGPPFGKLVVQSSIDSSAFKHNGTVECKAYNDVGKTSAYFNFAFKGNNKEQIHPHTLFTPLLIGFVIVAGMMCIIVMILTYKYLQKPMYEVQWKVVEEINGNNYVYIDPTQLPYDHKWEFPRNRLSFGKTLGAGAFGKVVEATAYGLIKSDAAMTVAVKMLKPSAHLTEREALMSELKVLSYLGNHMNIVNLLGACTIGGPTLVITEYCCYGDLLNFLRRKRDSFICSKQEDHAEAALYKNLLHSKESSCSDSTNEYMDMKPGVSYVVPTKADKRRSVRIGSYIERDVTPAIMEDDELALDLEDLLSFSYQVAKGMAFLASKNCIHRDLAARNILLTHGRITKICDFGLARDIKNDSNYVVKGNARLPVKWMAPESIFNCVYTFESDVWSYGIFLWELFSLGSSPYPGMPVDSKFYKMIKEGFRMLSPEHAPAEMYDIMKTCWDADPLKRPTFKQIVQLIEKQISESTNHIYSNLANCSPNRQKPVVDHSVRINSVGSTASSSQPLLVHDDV
Sequence of UniProt Q15208 (whole entry, looked up): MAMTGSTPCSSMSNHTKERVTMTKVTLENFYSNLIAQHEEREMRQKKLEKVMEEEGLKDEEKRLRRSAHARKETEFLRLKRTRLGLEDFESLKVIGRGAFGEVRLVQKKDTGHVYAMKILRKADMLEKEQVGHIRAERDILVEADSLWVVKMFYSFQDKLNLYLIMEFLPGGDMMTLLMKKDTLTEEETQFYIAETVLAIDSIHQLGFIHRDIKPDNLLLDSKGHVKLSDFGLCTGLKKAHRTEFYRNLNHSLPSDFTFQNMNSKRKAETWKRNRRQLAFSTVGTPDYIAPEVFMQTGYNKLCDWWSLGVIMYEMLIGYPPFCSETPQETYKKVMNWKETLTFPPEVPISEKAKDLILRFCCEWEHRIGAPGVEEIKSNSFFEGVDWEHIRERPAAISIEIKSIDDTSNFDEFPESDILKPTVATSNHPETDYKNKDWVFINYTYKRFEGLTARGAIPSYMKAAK
Sequence of UniProt Q9H3Y6 (whole entry, looked up): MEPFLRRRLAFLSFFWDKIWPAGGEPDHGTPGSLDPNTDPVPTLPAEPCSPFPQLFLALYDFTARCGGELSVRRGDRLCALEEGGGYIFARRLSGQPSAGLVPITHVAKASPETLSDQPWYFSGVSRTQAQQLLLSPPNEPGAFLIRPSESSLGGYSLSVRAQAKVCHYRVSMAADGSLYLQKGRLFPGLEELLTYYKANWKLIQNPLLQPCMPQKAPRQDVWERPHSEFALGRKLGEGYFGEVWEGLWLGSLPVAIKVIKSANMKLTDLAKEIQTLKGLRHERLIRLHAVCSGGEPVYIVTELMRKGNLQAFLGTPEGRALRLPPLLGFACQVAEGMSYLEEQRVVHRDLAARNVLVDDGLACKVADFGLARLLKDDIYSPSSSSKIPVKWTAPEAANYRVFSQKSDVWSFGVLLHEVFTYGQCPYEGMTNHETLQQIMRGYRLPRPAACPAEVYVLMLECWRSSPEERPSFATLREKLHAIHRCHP

Series 1 — observed: enzyme activity; mode: inhibitor; tested at: 10 µM
Target: Calcium/calmodulin-dependent protein kinase type II subunit alpha (CAMK2A, Homo sapiens, UniProt Q9UQM7)
Sequence of UniProt Q9UQM7 (whole entry, looked up): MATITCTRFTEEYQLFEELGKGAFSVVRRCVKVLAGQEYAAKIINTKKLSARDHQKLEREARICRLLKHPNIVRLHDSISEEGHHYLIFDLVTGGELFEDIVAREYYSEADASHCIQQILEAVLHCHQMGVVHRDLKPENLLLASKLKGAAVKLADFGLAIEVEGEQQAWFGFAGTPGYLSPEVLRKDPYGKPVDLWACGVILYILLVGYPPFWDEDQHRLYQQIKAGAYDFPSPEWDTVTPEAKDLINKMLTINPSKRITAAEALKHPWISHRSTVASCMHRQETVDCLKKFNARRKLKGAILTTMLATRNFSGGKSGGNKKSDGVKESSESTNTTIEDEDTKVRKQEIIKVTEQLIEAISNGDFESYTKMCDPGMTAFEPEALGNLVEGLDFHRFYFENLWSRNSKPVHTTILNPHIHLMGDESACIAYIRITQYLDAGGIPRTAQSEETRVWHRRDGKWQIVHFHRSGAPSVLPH
Compound	inhibition
C[C@H]1c2cccc(O)c2C(O)=C2C(=O)[C@]3(O)C(O)=C(C(N)=O)C(=O)[C@@H](N(C)C)[C@@H]3[C@@H](O)[C@@H]21	-9%
COC(=O)C1=CC[C@@]23CC[C@@H]([C@@](C)(/C=C/C=C(\C)C(=O)O)OC2=O)[C@@]3(OC(C)=O)CC1	6%
O=C(O)c1ncccc1O	-8%
Cc1ccc(Nc2c(F)cccc2Cl)c(CC(=O)O)c1	-2%
C[C@]12CCCN1CC1=NNC(=O)c3cc(F)cc4[nH]c2c1c34	-4%
CCC(C)CC(=O)O (stereo not shown)	-14%
COc1cc([C@H]2OC[C@H]3[C@@H]2CO[C@@H]3c2ccc(O[C@@H]3O[C@H](CO)[C@@H](O)[C@H](O)[C@H]3O)c(OC)c2)ccc1O[C@@H]1O[C@H](CO)[C@@H](O)[C@H](O)[C@H]1O	-22%
N[C@@H](CSCCCO)C(=O)O	-12%
COc1cc(/C=C/C(=O)NCC(O)c2ccc(O)cc2)ccc1O (stereo not shown)	-11%
O[C@]12CO[C@H](c3ccc4c(c3)OCO4)[C@H]1CO[C@@H]2c1ccc2c(c1)OCO2	-10%
CCCCCC(=O)CC(=O)NC1CCOC1=O (racemic)	-15%
CCCCCCOC(=O)CCC(=O)CN	4%
CC#CCn1c(N2CCC[C@@H](N)C2)nc2c1c(=O)n(Cc1nc(C)c3ccccc3n1)c(=O)n2C	-1%
CC(=O)N[C@H](Cc1ccc2ccccc2c1)C(=O)N[C@H](Cc1ccc(Cl)cc1)C(=O)N[C@H](Cc1cccnc1)C(=O)N[C@@H](CO)C(=O)N[C@@H](Cc1ccc(NC(=O)[C@@H]2CC(=O)NC(=O)N2)cc1)C(=O)N[C@H](Cc1ccc(NC(N)=O)cc1)C(=O)N[C@@H](CC(C)C)C(=O)N[C@@H](CCCCNC(C)C)C(=O)N1CCC[C@H]1C(=O)N[C@H](C)C(N)=O	-5%

Series 2 — tested at: 1 µM
SMILES: COc1ccc2[nH]c3c4[nH]c5ccc(OC)cc5c4c4c(c3c2c1)C(=O)NC4=O
target	technique	refers to	notes	reference	remaining binding
Serine/threonine-protein kinase N2 (PKN2, Homo sapiens, UniProt Q16513)	competitive binding panel			vehicle	52%
Mitogen-activated protein kinase kinase kinase 2 (MAP3K2, Homo sapiens, UniProt Q9Y2U5)	competitive binding panel			vehicle	85%
Casein kinase I isoform alpha (CSNK1A1, Homo sapiens, UniProt P48729)	competitive binding panel			vehicle	62%
Citron Rho-interacting kinase (CIT, Homo sapiens, UniProt O14578)	competitive binding panel			vehicle	35%
Mitogen-activated protein kinase kinase kinase kinase 1 (MAP4K1, Homo sapiens, UniProt Q92918)	competitive binding panel	HPK1		vehicle	90%
Mitogen-activated protein kinase kinase kinase 10 (MAP3K10, Homo sapiens, UniProt Q02779)	competitive binding panel	MLK2		vehicle	83%
Serine/threonine-protein kinase PRP4 homolog (PRPF4B, Homo sapiens, UniProt Q13523)	competitive binding panel	PRP4		vehicle	97%
Serine/threonine-protein kinase PAK 6 (PAK6, Homo sapiens, UniProt Q9NQU5)	competitive binding panel			vehicle	100%
cAMP-dependent protein kinase catalytic subunit beta (PRKACB, Homo sapiens, UniProt P22694)	competitive binding		PKAC-beta		89%
Vascular endothelial growth factor receptor 2 (KDR, Homo sapiens, UniProt P35968)	competitive binding		VEGFR2		59%

Series 3 — observed: enzyme activity; mode: inhibitor; tested at: 0.5 µM; reference: control
Target: Tyrosine-protein kinase Fyn (FYN, Homo sapiens, UniProt P06241)
Sequence of UniProt P06241 (whole entry, looked up): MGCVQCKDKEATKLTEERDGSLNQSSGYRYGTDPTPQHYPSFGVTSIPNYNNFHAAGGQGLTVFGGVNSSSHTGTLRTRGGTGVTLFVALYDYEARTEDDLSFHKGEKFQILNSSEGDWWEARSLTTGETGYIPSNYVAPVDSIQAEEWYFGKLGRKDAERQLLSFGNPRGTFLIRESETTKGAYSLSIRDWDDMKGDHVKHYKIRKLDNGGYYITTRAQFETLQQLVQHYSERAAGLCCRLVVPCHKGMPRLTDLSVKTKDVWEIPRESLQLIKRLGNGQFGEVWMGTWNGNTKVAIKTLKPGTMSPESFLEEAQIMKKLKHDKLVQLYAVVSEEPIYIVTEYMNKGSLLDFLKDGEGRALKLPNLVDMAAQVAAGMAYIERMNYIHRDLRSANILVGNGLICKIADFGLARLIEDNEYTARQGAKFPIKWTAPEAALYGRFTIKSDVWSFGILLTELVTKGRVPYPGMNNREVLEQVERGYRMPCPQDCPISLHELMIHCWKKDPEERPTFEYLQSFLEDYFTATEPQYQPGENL
SMILES	remaining activity
CCN(CC)C(=O)c1ccc(Nc2nc(OCC3CCCCC3)c3[nH]cnc3n2)cc1	62.6%
Cc1nc2cc3nc(-c4cccs4)cnc3cc2n1C	107%
c1ccc(-c2[nH]ncc2-c2ccnc3ccccc23)nc1	110%
CCOc1nc(NC(=O)Cc2cc(OC)ccc2OC)cc(N)c1C#N	101%
c1ccc(-c2cnc(Nc3ccc(OCCN4CCCC4)cc3)s2)cc1	81.1%
Nc1cccc(-c2cc3c(Oc4cccc(O)c4)ncnc3[nH]2)c1	7.92%
CN([C@@H](Cc1ccc(OS(=O)(=O)c2cccc3cnccc23)cc1)C(=O)N1CCN(c2ccccc2)CC1)S(=O)(=O)c1cccc2cnccc12	101%
CCN(CC)CCNC(=O)c1c(C)[nH]c(/C=C2\C(=O)Nc3ccc(F)cc32)c1C	71.3%
O=C(NC(NC(=S)Nc1ccc(F)c([N+](=O)[O-])c1)C(Cl)(Cl)Cl)C(c1ccccc1)c1ccccc1 (stereo not shown)	91.2%
CN(C)C[C@H]1CCn2c(c(C3=C(c4cn(C)c5ccccc45)C(=O)NC3=O)c3ccccc32)C1	92.8%
Ic1cccc(CSc2nnc(-c3ccncc3)o2)c1	102%
COc1cc2ncnc(Nc3ccc(O)c(Br)c3)c2cc1OC	80.4%
COc1cc2c(cc1OC)-c1[nH]nc(Nc3cccc(F)c3)c1C2	73.4%
Cn1nc2c3c(cccc31)C(=O)c1ccccc1-2	93.8%
Cc1cc2ncc(-c3ccccc3)nc2cc1C	99.4%
COc1cc2ncnc(Nc3cccc(Cl)c3)c2cc1OC	85.7%
O=C(Nc1cccc(Nc2nccc(Nc3cccc(C(F)(F)F)c3)n2)c1)C1CC1	54.1%
N#Cc1c(NC(=O)c2cccc3ccccc23)sc2c1CCCC2	102%
N#C/C(=C\c1ccc(O)c(O)c1)C(=O)NCc1ccccc1	116%
O=C1C(Cl)=C(N2C(=O)CCC2=O)C(=O)c2ccccc21	111%
Cc1cn(-c2cc(NC(=O)c3ccc(C)c(Nc4nccc(-c5cccnc5)n4)c3)cc(C(F)(F)F)c2)cn1	102%

Series 4 — observed: cell-free assay; technique: competition with immobilised ligand; tested at: 1 µM
SMILES: Cc1nc(C2CCN(C(=O)c3ccc(OC(F)(F)F)cc3N)CC2)c2ncc(N3CCN(C)CC3)cc2n1
target	remaining binding
Tyrosine-protein kinase Srms (SRMS, Homo sapiens, UniProt Q9H3Y6)	100%
BDNF/NT-3 growth factors receptor (NTRK2, Homo sapiens, UniProt Q16620)	100%
Mast/stem cell growth factor receptor Kit (KIT, Homo sapiens, UniProt P10721, T670I/V559D)	100%
Mast/stem cell growth factor receptor Kit (KIT, Homo sapiens, UniProt P10721)	90%
Myosin light chain kinase, smooth muscle (MYLK, Homo sapiens, UniProt Q15746)	100%
Citron Rho-interacting kinase (CIT, Homo sapiens, UniProt O14578)	100%
Hepatocyte growth factor receptor (MET, Homo sapiens, UniProt P08581)	94%
Serine/threonine-protein kinase 38 (STK38, Homo sapiens, UniProt Q15208)	94%
Phosphatidylinositol 4-phosphate 3-kinase C2 domain-containing subunit beta (PIK3C2B, Homo sapiens, UniProt O00750)	86%
Protein kinase C delta type (PRKCD, Homo sapiens, UniProt Q05655)	100%
Serine/threonine-protein kinase Nek11 (NEK11, Homo sapiens, UniProt Q8NG66)	100%
Activated CDC42 kinase 1 (TNK2, Homo sapiens, UniProt Q07912)	100%
Phosphatidylinositol 4,5-bisphosphate 3-kinase catalytic subunit delta isoform (PIK3CD, Homo sapiens, UniProt O00329)	78%
